Measurements collected from several papers.
Parts stem from different laboratories: compare values within a part only. ± marks the error that the study gave.
Chain of UniProt P41143 (whole entry, looked up): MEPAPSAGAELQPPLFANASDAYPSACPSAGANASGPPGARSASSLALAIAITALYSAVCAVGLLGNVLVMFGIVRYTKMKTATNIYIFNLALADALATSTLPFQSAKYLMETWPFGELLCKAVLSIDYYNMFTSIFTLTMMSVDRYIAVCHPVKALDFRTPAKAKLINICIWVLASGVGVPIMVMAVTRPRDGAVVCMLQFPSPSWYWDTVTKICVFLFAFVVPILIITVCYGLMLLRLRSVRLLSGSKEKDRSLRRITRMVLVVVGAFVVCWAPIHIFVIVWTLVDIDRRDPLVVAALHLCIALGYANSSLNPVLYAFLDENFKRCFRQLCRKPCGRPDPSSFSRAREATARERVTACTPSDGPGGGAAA
Chain of UniProt P06276 (whole entry, looked up): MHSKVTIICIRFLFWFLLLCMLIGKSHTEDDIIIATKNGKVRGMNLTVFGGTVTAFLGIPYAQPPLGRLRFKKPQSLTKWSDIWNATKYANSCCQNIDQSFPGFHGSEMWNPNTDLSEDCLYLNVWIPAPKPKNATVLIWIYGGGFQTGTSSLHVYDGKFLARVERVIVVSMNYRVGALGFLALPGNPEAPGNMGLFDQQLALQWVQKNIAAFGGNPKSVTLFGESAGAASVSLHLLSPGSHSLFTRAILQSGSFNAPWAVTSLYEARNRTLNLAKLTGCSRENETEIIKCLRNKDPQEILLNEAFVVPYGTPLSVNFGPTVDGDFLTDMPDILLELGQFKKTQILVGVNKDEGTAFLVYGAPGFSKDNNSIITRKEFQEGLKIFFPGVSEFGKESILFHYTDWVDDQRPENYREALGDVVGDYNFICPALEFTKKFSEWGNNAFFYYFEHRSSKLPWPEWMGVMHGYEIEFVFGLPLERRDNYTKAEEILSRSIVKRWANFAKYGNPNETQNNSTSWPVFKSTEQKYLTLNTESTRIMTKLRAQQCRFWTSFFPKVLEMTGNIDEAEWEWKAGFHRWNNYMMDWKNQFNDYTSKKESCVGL
Chain of UniProt P37136 (whole entry, looked up): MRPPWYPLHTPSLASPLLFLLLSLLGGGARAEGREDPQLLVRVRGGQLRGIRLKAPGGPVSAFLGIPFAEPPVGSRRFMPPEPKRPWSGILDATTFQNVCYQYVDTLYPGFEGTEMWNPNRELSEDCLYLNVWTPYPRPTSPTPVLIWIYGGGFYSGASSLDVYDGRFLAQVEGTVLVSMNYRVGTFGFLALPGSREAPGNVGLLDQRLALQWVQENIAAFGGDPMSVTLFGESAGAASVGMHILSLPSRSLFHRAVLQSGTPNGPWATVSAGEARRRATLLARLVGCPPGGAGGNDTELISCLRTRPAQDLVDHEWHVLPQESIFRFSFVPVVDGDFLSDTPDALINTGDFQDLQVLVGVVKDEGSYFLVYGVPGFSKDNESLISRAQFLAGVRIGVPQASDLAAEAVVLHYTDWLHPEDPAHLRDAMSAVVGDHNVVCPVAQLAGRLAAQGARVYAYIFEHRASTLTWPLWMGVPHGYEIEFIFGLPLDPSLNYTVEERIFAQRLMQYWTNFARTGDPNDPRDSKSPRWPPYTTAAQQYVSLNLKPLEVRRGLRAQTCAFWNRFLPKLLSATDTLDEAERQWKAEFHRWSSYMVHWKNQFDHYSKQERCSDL
Chain of UniProt P42866 (whole entry, looked up): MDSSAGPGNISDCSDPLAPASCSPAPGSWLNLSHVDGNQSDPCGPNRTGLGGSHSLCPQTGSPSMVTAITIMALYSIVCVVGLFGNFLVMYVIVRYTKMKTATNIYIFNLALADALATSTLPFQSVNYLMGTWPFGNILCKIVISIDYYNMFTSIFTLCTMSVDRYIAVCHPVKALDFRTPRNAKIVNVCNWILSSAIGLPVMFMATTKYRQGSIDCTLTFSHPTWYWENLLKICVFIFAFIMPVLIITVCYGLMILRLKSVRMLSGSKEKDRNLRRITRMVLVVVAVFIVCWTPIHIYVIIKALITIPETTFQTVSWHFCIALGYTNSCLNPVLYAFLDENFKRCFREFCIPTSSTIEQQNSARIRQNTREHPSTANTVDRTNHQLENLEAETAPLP

Block 1
Molecule: SNC80
Mode: agonist
| target | effect on | EC50 [nM] |
| --- | --- | --- |
| Delta-type opioid receptor, with GoA (OPRD1, Homo sapiens, UniProt P41143) | GoA activation | 1.37 |
| Delta-type opioid receptor, with β-arrestin2 (OPRD1, Homo sapiens, UniProt P41143) | β-arrestin2 recruitment | 23.3 |
| Delta-type opioid receptor, with GoB (OPRD1, Homo sapiens, UniProt P41143) | GoB activation | 1.07 |

Further values, each from its own experiment
| Molecule | target or system | test | system | setting | how to read | quantity | value |
| --- | --- | --- | --- | --- | --- | --- | --- |
| insulin | – | – | female C57BL/6J mice | endogenous, population model, with: glucose 0.35 g/kg iv | – | clearance | 6.4 mL/min |
| phoxim-oxon | Ache (Rattus norvegicus, UniProt P37136) | inhibitor | rat, postnatal day 70, rat brain homogenate | 15 min, 37 °C | – | IC50 | 43 nM |
| insulin | – | – | PBS | – | – | solubility | 1050 µM |
| DAMGO | Oprm1 (Mus musculus, UniProt P42866) | G protein activation, agonist | MOR-CHO cell membranes | – | relative to: full agonist | Emax | 100 ± 9.2% |
| benzalkonium bromide | Cholinesterase (BCHE, Homo sapiens, UniProt P06276) | enzyme activity, inhibitor | – | concentration not given | – | inhibition | -80 ± 5.25% |

For quick reference, copied from above (further values, each from its own experiment):
| Molecule | target or system | test | system | setting | how to read | quantity | value |
| --- | --- | --- | --- | --- | --- | --- | --- |
| DAMGO | Oprm1 (Mus musculus, UniProt P42866) | G protein activation, agonist | MOR-CHO cell membranes | – | relative to: full agonist | Emax | 100 ± 9.2% |
